Experimental data pooled from the literature.
Parts stem from different laboratories: compare values within a part only. Changes are numbered by the printed parent chain.

Block 1 — technique: RNA Bind-n-Seq; form: RNA; sample: in vitro; concentration: 200 nM; notes: whole 134-nt RNA, ends assumed; together with: 150 mM LiCl; reference: input library; direction: higher = stronger binding; measurement: log2 enrichment; each molecule: 7-deaza-guanosine replaces G
Target: Ras GTPase-activating protein-binding protein 1, full length (G3BP1, Homo sapiens, UniProt Q13283)
UniProt Q13283, sequence (whole entry, looked up): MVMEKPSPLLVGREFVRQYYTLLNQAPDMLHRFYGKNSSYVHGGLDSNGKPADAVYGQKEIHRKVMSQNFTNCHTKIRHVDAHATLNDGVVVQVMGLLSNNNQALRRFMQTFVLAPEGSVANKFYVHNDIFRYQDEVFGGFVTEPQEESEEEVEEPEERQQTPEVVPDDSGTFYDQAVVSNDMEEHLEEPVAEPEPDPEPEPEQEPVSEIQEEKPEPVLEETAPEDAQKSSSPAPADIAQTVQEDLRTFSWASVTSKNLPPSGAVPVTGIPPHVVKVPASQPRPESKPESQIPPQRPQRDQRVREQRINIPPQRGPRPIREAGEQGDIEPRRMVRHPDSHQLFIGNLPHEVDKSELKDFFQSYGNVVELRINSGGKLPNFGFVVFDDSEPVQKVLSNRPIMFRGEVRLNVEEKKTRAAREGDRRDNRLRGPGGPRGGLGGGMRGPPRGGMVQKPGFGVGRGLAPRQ
Shared flanks, not repeated: GGGAGUUCUACAGUCCGACGAUC … UGGAAUUCUCGGGUGUCAAGG
UCCUCAAGUCCUGUGCUACACAUCGUAUGUACCGAAUCGGUGGUGGGUGGGAAAGUAUUAUGUUACGCCGUUCGGAUCUGCACUUCCAGC: 0.943
CAAGUCCUGUGCUACACAUCGUAUGUACCGAAUCGGGGUUGGGUUGGGGUUGGGGAAAGUAUUAUGUUACGCCGUUCGGAUCUGCACUUC: 0.413
UCCUCAAGUCCUGUGCUACACAUCGUAUGUACCGAAUCGGGAGGAGGGGAGGAAAGUAUUAUGUUACGCCGUUCGGAUCUGCACUUCCAG: -0.359
AAGUCCUGUGCUACACAUCGUAUGUACCGAAUCGGUUUGGGGUUUGGGGUUUGGGGAAAGUAUUAUGUUACGCCGUUCGGAUCUGCACUU: -1.39
UGGCCCUGGUGGCAUGCGGGGAGGAAGAGGUGGCCUCAUGGAUCGUGGUGGUCCCGGUGGAAUGUUCAGAAGUGGCCGUGGUGGAGACAG: -0.0939
UAACUUUAGAGGAGGAUCUGAUGGAUAUGGCAGUGGACGUGGAUUUCGGGAUGGCUAUAAUGGGUAUGGAGGAGGACCUGGAGGUGGCAA: -0.707
CCUCAAGUCCUGUGCUACACAUCGUAUGUACCGAAUCGGGGUGGGUGGUGGGAAAGUAUUAUGUUACGCCGUUCGGAUCUGCACUUCCAG: -0.104
UGGCCCUGGUGGCAUGCGGGGAGGAAGAGGUGGCCUCAUGGAUCGUGGUGGUCCCGGUGGAAUGUUCAGAGGUGGCCGUGGUGGAGACUG: 0.163

Block 2 — target: CEP164, C-terminal peptide (human); technique: DHFR complementation, deep sequencing; sample: yeast; reference: wild type; direction: higher = weaker binding; measurement: binding free energy change
Notes: single substitutions, model-inferred values
Starting sequence: PDZK1, PDZ domain 2 (human); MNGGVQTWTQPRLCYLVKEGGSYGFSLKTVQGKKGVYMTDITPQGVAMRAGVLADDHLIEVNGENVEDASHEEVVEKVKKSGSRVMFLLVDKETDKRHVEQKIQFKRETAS; partner HNRVKVYRF
E93R: -0.141 kcal/mol
G63P: 0.555 kcal/mol
G24F: 0.871 kcal/mol
G3S: -0.0531 kcal/mol
T94W: -0.0559 kcal/mol
K102W: -0.0807 kcal/mol
D56V: 0.773 kcal/mol
L53T: 0.39 kcal/mol

Block 3 — target: vanadate, free oxyanion; technique: microfluidic competitive inhibition; sample: in vitro, cell-free expressed; concentration: not given; direction: lower = stronger binding; measurement: oxyanion analog dissociation constant
Notes: derived from inhibition constants, unchanged parent 676 nM
Starting sequence: PafA, mature enzyme, eGFP fusion (Elizabethkingia meningoseptica, UniProt Q9KJX5); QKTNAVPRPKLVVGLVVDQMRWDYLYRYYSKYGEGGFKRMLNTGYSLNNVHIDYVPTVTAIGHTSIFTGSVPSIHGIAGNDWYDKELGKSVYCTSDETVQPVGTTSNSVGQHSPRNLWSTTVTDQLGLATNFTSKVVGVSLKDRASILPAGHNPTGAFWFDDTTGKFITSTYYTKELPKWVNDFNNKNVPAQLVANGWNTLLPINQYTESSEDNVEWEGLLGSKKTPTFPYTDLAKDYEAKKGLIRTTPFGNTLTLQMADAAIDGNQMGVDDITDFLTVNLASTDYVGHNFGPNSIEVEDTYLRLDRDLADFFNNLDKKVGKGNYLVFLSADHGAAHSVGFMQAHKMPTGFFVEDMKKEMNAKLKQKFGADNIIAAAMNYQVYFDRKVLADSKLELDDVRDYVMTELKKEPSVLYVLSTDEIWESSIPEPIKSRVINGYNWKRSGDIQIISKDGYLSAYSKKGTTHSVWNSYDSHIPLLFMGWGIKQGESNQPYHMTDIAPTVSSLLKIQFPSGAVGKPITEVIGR
A310V: 653 nM
M404V: 891 nM
N290G: 500 nM

Block 4 — target: CCNB3, cyclin fold, Cln2 fusion (human); technique: yeast growth competition, sequencing; sample: yeast; notes: strong parent motif; reference: not given; direction: higher = stronger binding; measurement: normalised enrichment score
Starting sequence: viral docking peptide; KGVKRKLFAEDSS; partner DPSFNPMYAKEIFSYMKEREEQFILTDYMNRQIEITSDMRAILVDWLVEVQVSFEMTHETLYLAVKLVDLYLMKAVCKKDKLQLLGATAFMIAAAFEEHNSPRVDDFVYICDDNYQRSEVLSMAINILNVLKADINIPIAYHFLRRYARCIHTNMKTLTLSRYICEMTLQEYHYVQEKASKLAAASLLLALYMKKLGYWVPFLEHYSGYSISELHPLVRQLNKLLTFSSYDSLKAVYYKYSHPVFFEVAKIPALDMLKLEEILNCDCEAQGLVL
KGVKRKLFFEDSS [A9F]: 2.91
KGVKRKLFAYDSS [E10Y]: 1.13
KGVPRKLFAEDSS [K4P]: 0.735
KGVKMKLFAEDSS [R5M]: 0.413
KGVKRVLFAEDSS [K6V]: 2.59
KGVKRKLFAEDIS [S12I]: 3.12
KAVKRKLFAEDSS [G2A]: 2.11
KGVKRKLFLEDSS [A9L]: 2.46
KGVKRKLFAKDSS [E10K]: 1.22
KDVKRKLFAEDSS [G2D]: 3.23
KGVKRKLFAEPSS [D11P]: 2.39
KEVKRKLFAEDSS [G2E]: 2.52
KGVKRKLFAEFSS [D11F]: 1.94
KGVKRKVFAEDSS [L7V]: 0.181
KGVKRKLFAEDPS [S12P]: 3.4
KGFKRKLFAEDSS [V3F]: 1.01
KGVKRKLFAERSS [D11R]: 1.33
KGVKRSLFAEDSS [K6S]: 2.01
